Measurements of several laboratories.
Lines come from different studies, so protocols differ. ± gives the spread as reported.

O=C(Nc1ccc(F)cc1)N1CCNCC1COc1ccc2ccccc2c1 (centres unmarked)  remaining compound (mouse liver microsomes; 90 min): 43 ± 3%
O=Cc1cc2ccccc2cc1C=O  remaining compound (HPLC-MS; HEPES buffer with 10% acetonitrile; 1 mM, 1 h, pH 7.4): 82%
CC[C@H](C)C(=O)O[C@H]1C[C@@H](C)C=C2C=C[C@H](C)[C@H](CC[C@@H]3C[C@@H](O)CC(=O)O3)[C@H]21  remaining compound (mouse liver microsomes; 45 min): not detected
Cn1cncc1-c1c(F)cncc1NC(=O)c1c(N)nn2cc(F)cnc12  remaining compound (DMSO stock solution; 100 µg/mL, 6 h, room temperature, benchtop): 98.1%
COc1ccc2c(Cc3ccccc3F)c3[n+](cc2c1OC)CCc1cc2c(cc1-3)OCO2.[Br-]  remaining compound (human liver microsomes; 10 µM, 30 min, pH 7.4, together with: microsomes 0.5 mg/mL): 45.3 ± 8.7%
CC[N+]1(C)CCN(c2ccc(NC(=O)c3cccc(C)n3)cc2)CC1  remaining compound (pooled BALB/c mouse plasma; 1 µM, 0.25 h): 102%
CCOC(=O)[C@H](CCc1ccccc1)N[C@@H](C)C(=O)N1CCC[C@H]1C(=O)O  remaining compound (human plasma; 10 µM, 120 min): 90%
O=C(O)c1ccc(CN2CCC(CN[C@@H]3C[C@H]3c3ccccc3)CC2)cc1  remaining compound (aqueous buffer; 0 days, 37 °C): 99%
NC(=O)c1ccccc1NC(=O)c1ccc(-c2ccccc2)cc1  remaining compound (human plasma; 2 µM, 30 min, 37 °C): 118%
CCOc1ccc2ccc(=O)oc2c1  remaining compound (human liver microsomes; 1 µM, 10 min, pH 7.4): 58%
CSc1nccc(C(=O)N[C@@H](CCC(=O)O)C(=O)N[C@@H](Cc2ccc3ccccc3c2)C(=O)N[C@@H](CC(C)C)C(=O)NC2CC2c2ccccc2)n1 (some centres unmarked)  remaining compound (pooled human plasma; 0 min, 37 °C): 100%
CC(C)=CCC[C@](C)(O[C@@H]1O[C@H](CO[C@@H]2O[C@H](CO)[C@@H](O)[C@H](O)[C@H]2O)[C@@H](O)[C@H](O)[C@H]1O)[C@H]1CC[C@]2(C)[C@@H]1[C@H](O)C[C@@H]1[C@@]3(C)CC[C@H](O[C@@H]4O[C@H](CO)[C@@H](O)[C@H](O)[C@H]4O[C@@H]4O[C@H](CO)[C@@H](O)[C@H](O)[C@H]4O)C(C)(C)[C@@H]3CC[C@]12C  remaining compound (rat plasma; 25 ng/mL, 24 h, room temperature): 102 ± 1.4%
Cc1cc(Oc2ncccc2CN2CCN(c3ncccc3C(F)(F)F)CC2)ccc1-c1c(C)c(=O)[nH]c(=O)n1C  remaining compound (metabolic stability; rat liver S9 fraction; 2 µM, 0.6667 h, pH 7.4): 90%
N#Cc1ccc(Nc2nc(N)cc(Oc3c(F)cc(-c4ccc(C#N)cc4)cc3F)n2)cc1  remaining compound (human plasma; 1 µM, 0.00 h, pH 7.4, 37 °C): 100%
OCc1nc2ccc(NCc3ccc(C(F)(F)F)cc3)cc2[nH]1  remaining compound (human liver S9; 1 µM, 90 min, pH 7.4): > 80%
CC(C(=O)Nc1c(F)cccc1F)N1CCN(c2ccccc2)CC1 (centres unmarked)  remaining compound (human plasma; 1 µM, 4 h, 37 °C): 99.8%
C#CCN(C)Cc1ccccc1  remaining compound (aqueous buffer; 4 days, 37 °C): 98%
C/C=C/C(=O)Nc1ccc(-n2nc3c(=O)[nH]nc(N)c3c2-c2oc3ccc(C)cc3c2C)cc1  remaining compound (BALB/c nude mouse whole blood; 1 µM, 1 h, 37 °C): 95.7%
Cc1cc2ccccc2n1CCNC(=O)c1ccc(N2CCC(C(=O)O)CC2)cc1  remaining compound (human liver microsomes; 60 min): > 50%
COc1ccc(-c2c(-c3ccc(C#N)c(F)c3)nc(N3CCC(N)CC3)n(C)c2=O)cc1F  remaining compound (aqueous buffer; 0 days, 37 °C): 98%
C=CC(=O)N1CCC(C(=O)NCC(=O)N2CCN(c3nc(-c4cnc(N)nc4C(F)F)nc(N4CCOCC4)n3)CC2)CC1  remaining compound (microsomes, rat liver, male, Sprague-Dawley; 1 µM, 60 min, without NADPH, 0.5 mg/mL microsomal protein): 110%
[15NH2][C@@H](CSSC[C@H]([15NH2])C(=O)O)C(=O)O  remaining compound (0.1 M HCl stock solution; 3 µg/mL, 3 weeks, 4 °C; baseline: freshly prepared): 106%
CCN(CC)CCOC(=O)c1ccc(N)cc1  remaining compound (mouse plasma; 10 µM, 120 min): < 1%
CNc1cc[n+](CCNC(=O)c2ccn3c(-c4c(C)noc4C)cnc3c2)cc1.[Cl-]  remaining compound (aqueous buffer; initial, pH 10): 100 % peak area
COc1ccc2[nH]c([S+]([O-])Cc3ncc(C)c(OC)c3C)nc2c1 (centres unmarked)  remaining compound (simulated gastric fluid with pepsin; 1 µM, 30 min, pH 1.2): 0%
FC(F)=Cc1cc(C(F)(F)F)cc(C(F)(F)F)c1  remaining compound (HPLC-MS; HEPES buffer with 10% acetonitrile; 1 mM, 1 h, pH 7.4): 96%
C[C@]1(C(=O)[C@H](Cc2ccccc2)NC(=O)[C@@H]2Cc3ccc(cc3)OCCCCCCCC(=O)N3CCC[C@H]3C(=O)N2)CO1  remaining compound (human liver microsomes; 60 min): not detected
COc1ccc2c(Cc3ccccc3F)c3n(c(=O)c2c1OC)CCc1cc2c(cc1-3)OCO2  remaining compound (human liver microsomes; 10 µM, 30 min, pH 7.4, together with: microsomes 0.5 mg/mL): 68.2 ± 6.1%
C=CC(=O)N1CCC(C(=O)N(C)CC(=O)N2CCN(c3nc(-c4cnc(N)nc4C(F)F)nc(N4CCOCC4)n3)CC2)CC1  remaining compound (microsomes, rat liver, male, Sprague-Dawley; 1 µM, 30 min, 0.5 mg/mL microsomal protein, together with: NADPH): 92%
O=C(O)c1ccc(-c2cc(NCCCN3CCCCC3)c3ccccc3n2)cc1  remaining compound (human plasma; 1 h): 100%
C/C(=N\NC(=O)c1cccc(S(=O)(=O)N2CCN(C)CC2)c1)c1cc(Cl)ccc1O  remaining compound (aqueous buffer; 4 days, 37 °C): 74%
Cc1cc(Oc2ncccc2CN2CCN(c3cccc(C)c3C)CC2)ccc1-c1c(C)c(=O)[nH]c(=O)n1C  remaining compound (rat plasma; 1 µM, 2 h): 92%
COc1ccc(-c2cc(NCCCN3CCCCC3)c3ccccc3n2)cc1  remaining compound (human plasma; 1 h): 97.4%
N#C[C@@]12C[C@@H]1[C@@H](n1cnc3c(N[C@@H](C4CCC4)C4CC4)nc(I)nc31)[C@H](O)[C@@H]2O  remaining compound (plasma stability; rat plasma; 120 min): 100%
Cc1c(Br)cc(NC(=O)CS(=O)(=O)O)cc1Br  remaining compound (mouse liver microsomes; 4 µM, 30 min): 0%
CC(C)[N+](C)(CCOC(=O)C1c2ccccc2Oc2ccccc21)C(C)C  remaining compound (human whole blood; 5 µM, 0 min): 100%
CSc1ncc(Br)c(C(=O)N[C@@H](CCC(=O)O)C(=O)N[C@@H](Cc2ccc3ccccc3c2)C(=O)N[C@@H](CC(C)C)C(=O)N[C@@H]2C[C@H]2c2ccccc2)n1  remaining compound (pooled human plasma; 30 min, 37 °C): 92.3%
NC(=O)c1ccc(-c2cc(NCCCN3CCCCC3)c3ccccc3n2)cc1  remaining compound (human plasma; 1 h): 94.6%
Cc1cc2ccccc2n1CCNC(=O)c1ccc(-n2cnnn2)cc1  remaining compound (mouse liver microsomes; 60 min): > 7%
CO[C@@H](C[C@H]1C(C)=CC[C@@H]2[C@]3(C)C[C@H](O[C@@H]4O[C@@H](C)[C@H](OC(=O)c5cccc(O)c5)[C@@H](O[C@@H]5O[C@H](CO)[C@@H](O)[C@H](O)[C@H]5NC(C)=O)[C@H]4O)[C@@H](O)C(C)(C)[C@H]3CC[C@]21C)[C@H](N)C(=O)O.O=C(O)C(F)(F)F  remaining compound (simulated gastric fluid with pepsin; 1 µM, 60 min, pH 1.2): 102%
COc1cc2c3cc1Oc1c(OC)c(OC)cc4c1[C@@H](Cc1ccc(O)c(c1)Oc1ccc(cc1)C[C@@H]3N(C)CC2)N(C)CC4  remaining compound (mouse plasma, K3EDTA; 4 h, 37 °C): 113%
